Measured values of several laboratories.
Compare with care: the assays were run in different laboratories. Values joined by “and” are separate records of one study, mostly repeats; a detail may differ. ± gives the spread as reported.
GLP1R: Glucagon-like peptide 1 receptor (GLP1R, Homo sapiens, UniProt P43220)

`CC1=C[C@H](O)CC(C)(C)[C@H]1/C=C/C(C)=C/C=C/C(C)=C/C=C/C=C(C)/C=C/C=C(C)/C=C/C1=C(C)C[C@@H](O)CC1(C)C` has a fluorescence decrease of 23.2% (Beta-lactoglobulin (LGB, Bos taurus, UniProt P02754); intrinsic fluorescence; 298 K; reference: protein alone).
`Nc1nc2c(ncn2[C@@H]2O[C@@H]3COP(=O)(O)O[C@H]4[C@@H](O)[C@H](n5cnc6c(=O)[nH]c(N)nc65)O[C@@H]4COP(=O)(O)O[C@H]3[C@H]2O)c(=O)[nH]1` gave a ΔH of 1.03 ± 0.0433 kcal/mol (Cell cycle histidine kinase CckA, DHp-CA domains (Caulobacter vibrioides, UniProt Q9X688); ITC; added: AMPPNP 5 mM).
With `Cc1nc(CSc2nc(SCc3ccc(C(C)C)cc3)nc(=O)[nH]2)cs1` the linear DNA was 0% (TOP2A (Homo sapiens, UniProt P11388); DNA cleavage; 15.6 µM, replicate 1).
With `N[C@@H](CCSC[C@H](N)C(=O)O)C(=O)O` the Ki was 45 mM (Uncharacterized protein (Thermobifida fusca, UniProt Q47ST9); substrate inhibition).
`C[C@@H]1CCO[C@H]2Cn3cc(C(=O)NCc4ccc(F)cc4F)c(=O)c(O)c3C(=O)N12` has an inhibition of 13.6% (SLC22A3 (Homo sapiens, UniProt O75751); transport; MDCK-II, transfected; 3 µM, added: MPP+ 2 µM).
`CC[C@H](C)[C@H](NC(=O)[C@H](Cc1ccccc1)NC(=O)[C@H](CCC(=O)O)NC(=O)[C@H](CCCNC(=N)N)NC(=O)[C@H](C)NC(=O)[C@H](C)NC(=O)[C@H](CCC(N)=O)NC(=O)[C@H](CCCCNc1c(NCCCCCN(O)C(=O)CCC(=O)NCCCCCN(O)C(=O)CCC(=O)NCCCCCN(O)C(C)=O)c(=O)c1=O)NC(=O)[C@H](CCC(=O)O)NC(=O)[C@H](CC(C)C)NC(=O)[C@H](Cc1ccc(O)cc1)NC(=O)[C@H](CO)NC(=O)[C@H](CO)NC(=O)[C@@H](NC(=O)[C@H](CC(=O)O)NC(=O)[C@H](CO)NC(=O)[C@@H](NC(=O)[C@H](Cc1ccccc1)NC(=O)[C@@H](NC(=O)CNC(=O)[C@H](CCC(=O)O)NC(=O)[C@H](C)NC(=O)CCc1cnc[nH]1)[C@@H](C)O)[C@@H](C)O)C(C)C)C(=O)N[C@@H](C)C(=O)N[C@@H](Cc1c[nH]c2ccccc12)C(=O)N[C@@H](CC(C)C)C(=O)N[C@H](C(=O)N[C@@H](CCCCNc1c(NCCCCCN(O)C(=O)CCC(=O)NCCCCCN(O)C(=O)CCC(=O)NCCCCCN(O)C(C)=O)c(=O)c1=O)C(=O)NCC(=O)N[C@@H](CCCNC(=N)N)C(=O)N[C@@H](CCCCNC(=O)COCCOCCNC(=O)COCCOCCNC(=O)CC[C@H](NC(=O)CCCCCCCCCCCCCCCCC(=O)O)C(=O)O)C(=O)O)C(C)C` — result for “fold potency loss”: 2.6 (GLP1R; agonist, CRE luciferase reporter; BHK cells; Zr-loaded DFO conjugate, added: 1% HSA; reference: parent peptide).
The apparent Vmax of `Oc1c(Br)cc(Oc2ccc(Br)cc2Br)cc1Br` is reported as 24.1 nmol/min/mg protein (SULT1B1 (Homo sapiens, UniProt O43704); sulfonation, substrate).
For `CCCCC[C@H](O)/C=C/[C@H]1[C@H](O)CC(=O)[C@@H]1C/C=C\CCCC(=O)O`, the Emax was 69.8 ± 5.62% (PTGER1 (Homo sapiens, UniProt P34995, L125A); IP1 accumulation, agonist; AD293; 1 h, EP1 L125A mutant).
`CCN1CCC[C@H]1CNC(=O)c1c(O)c(Cl)cc(Cl)c1OC`: “log2 fold change” 0.228 (G-protein coupled receptor 20 (GPR20, Homo sapiens, UniProt Q99678); β-arrestin recruitment, TANGO luminescence, item: GPR20; concentration not given; reference: basal luminescence).
`Oc1ccc(/C=C/c2cc(O)cc(O)c2)cc1` gave a binding stoichiometry of 0.57 ± 0.005 (O-methyltransferase (Sorghum bicolor, UniProt A0A1B6PFV1); ITC; concentration not given, added: MET+).
With `Cc1ccc(N2CC(C(N)=O)CC2=O)cc1` (centres unmarked) the fold enrichment was 1.13 (Transcription intermediary factor 1-alpha, PHD-bromodomain (TRIM24, Homo sapiens, UniProt O15164); binding, affinity selection mass spectrometry; reference: other proteins in batch).
The current density of `Nc1ccc(C(=O)O)cc1` is reported as -11.1 pA/pF and -8.37 pA/pF and -9.84 pA/pF and -3.5 pA/pF and -12.2 pA/pF and -2.3 pA/pF (BEST1, with wild-type BEST1 (Homo sapiens, UniProt O76090, A243T); whole-cell patch clamp; HEK293 co-expressing WT and A243T mutant; concentration not given, membrane potential -40 mV).
With `OO` the kcat was 3.6 s⁻¹ (alternative ancestral dye-decolorizing peroxidase; peroxidase activity, substrate, steady-state kinetics; 25 °C, pH 3 ABTS, 4 others).
The Hill coefficient of `N#Cc1ccc2[nH]cc(CCCCN3CCN(c4ccc5oc(C(N)=O)cc5c4)CC3)c2c1` is reported as 0.98 ± 0.08 (SLC6A4 (Homo sapiens, UniProt P31645, N177V); [3H]5-HT uptake, inhibitor; COS-7).
For `Nc1ncnc2c1ncn2[C@@H]1O[C@H](CO[P@](=O)(O)O[P@](=O)(O)O[P@@](=O)(O)S)[C@@H](O)[C@H]1O`, the ΔH was -0.243 kcal/mol (GUK1 (Homo sapiens, UniProt Q16774); ITC; molar ratio 3.279).
With `CCCc1cc(C)[nH]c(=O)c1CNC(=O)c1cc(-c2ccc(N3CCN(C(C)C)CC3)nc2)cc2c1cnn2C(C)C` the selectivity ratio was roughly 10 fold (EZH1 (Homo sapiens, UniProt Q92800); inhibitor; reference: EZH1 IC50 over EZH2 IC50).
`CC[C@H](C)[C@H](NC(=O)[C@H](Cc1ccccc1)NC(=O)[C@H](CCC(=O)O)NC(=O)[C@H](CCCNC(=N)N)NC(=O)[C@H](C)NC(=O)[C@H](C)NC(=O)[C@H](CCC(N)=O)NC(=O)[C@H](CCC(=O)O)NC(=O)[C@H](CCC(=O)O)NC(=O)[C@H](CC(C)C)NC(=O)[C@H](Cc1ccc(O)cc1)NC(=O)[C@H](CO)NC(=O)[C@H](CO)NC(=O)[C@@H](NC(=O)[C@H](CC(=O)O)NC(=O)[C@H](CO)NC(=O)[C@@H](NC(=O)[C@H](Cc1ccccc1)NC(=O)[C@@H](NC(=O)CNC(=O)[C@H](CCC(=O)O)NC(=O)[C@H](C)NC(=O)CCc1cnc[nH]1)[C@@H](C)O)[C@@H](C)O)C(C)C)C(=O)N[C@@H](C)C(=O)N[C@@H](Cc1c[nH]c2ccccc12)C(=O)N[C@@H](CC(C)C)C(=O)N[C@H](C(=O)N[C@@H](CCCCNC(=O)COCCOCCNC(=O)COCCOCCNC(=O)CC[C@H](NC(=O)CCCCCCCCCCCCCCCCC(=O)O)C(=O)O)C(=O)NCC(=O)N[C@@H](CCCNC(=N)N)C(=O)N[C@@H](CCCCNc1c(NCCCCCN(O)C(=O)CCC(=O)NCCCCCN(O)C(=O)CCC(=O)NCCCCCN(O)C(C)=O)c(=O)c1=O)C(=O)NCC(=O)NCC(=O)N[C@@H](CO)C(=O)N[C@@H](CCCCNc1c(NCCCCCN(O)C(=O)CCC(=O)NCCCCCN(O)C(=O)CCC(=O)NCCCCCN(O)C(C)=O)c(=O)c1=O)C(=O)NCC(=O)NCC(=O)N[C@@H](CO)C(=O)N[C@@H](CCCCNc1c(NCCCCCN(O)C(=O)CCC(=O)NCCCCCN(O)C(=O)CCC(=O)NCCCCCN(O)C(C)=O)c(=O)c1=O)C(=O)O)C(C)C` — result for “fold potency loss”: 3.3 (GLP1R; agonist, CRE luciferase reporter; BHK cells; Zr-loaded DFO conjugate, added: 1% HSA; reference: parent peptide).
`O=C1Nc2c(ccc(Cl)c2Cl)C1=NO`: current change “no effect” (KCNN4/CALM1 (Homo sapiens, UniProt O15554+P0DP23, V282G); ion current, whole-cell patch clamp; HEK293 expressing V282G mutant; 10 µM, added: 250 nM intracellular calcium).
For `CC1(C)CN(CCCCC(=O)N[C@@H](CCCCNC(=O)CCCCCCC(=O)NCCCC[C@H](NC(=O)N[C@@H](CCC(=O)O)C(=O)O)C(=O)O)C(=O)O)CC[N]2CC(C)(C)[S][Tc]2(=[O])[S]1` (some centres unmarked) [technetium-99m labelled], the Bmax was 9 µmol/mg (FOLH1 (Homo sapiens, UniProt Q04609); saturation binding; LNCaP).
For `CC[C@H](C)[C@@H]1NC(=O)[C@H](CCCNC(=N)N)NC(=O)[C@@H]2CCCN2C(=O)[C@H](Cc2ccccc2)NC(=O)[C@H]([C@@H](C)O)NC(=O)CNC(=O)[C@H](CC(C)C)NC(=O)[C@@H]2CCCN2C(=O)[C@H]([C@@H](C)O)NC(=O)[C@H](Cc2c[nH]c3ccccc23)NC(=O)[C@H](Cc2ccc(O)cc2)NC(=O)[C@H]([C@@H](C)CC)NC(=O)[C@H]([C@@H](C)O)NC(=O)[C@H]([C@@H](C)O)NC(=O)[C@@H](Cc2ccc(O)cc2)NC(=O)CSC[C@@H](C(N)=O)NC(=O)[C@H](CCCNC(=N)N)NC1=O`, the ΔH was -11.6 ± 0.1 kcal/mol (Vacuolar protein sorting-associated protein 29 (VPS29, Homo sapiens, UniProt Q9UBQ0); binding, ITC; 25 °C, protein alone).
For `CC[C@H](C)[C@H](NC(=O)[C@H](Cc1ccccc1)NC(=O)[C@H](CCC(=O)O)NC(=O)[C@H](CCCNC(=N)N)NC(=O)[C@H](C)NC(=O)[C@H](C)NC(=O)[C@H](CCC(N)=O)NC(=O)[C@H](CCC(=O)O)NC(=O)[C@H](CCC(=O)O)NC(=O)[C@H](CC(C)C)NC(=O)[C@H](Cc1ccc(O)cc1)NC(=O)[C@H](CO)NC(=O)[C@H](CO)NC(=O)[C@@H](NC(=O)[C@H](CC(=O)O)NC(=O)[C@H](CO)NC(=O)[C@@H](NC(=O)[C@H](Cc1ccccc1)NC(=O)[C@@H](NC(=O)CNC(=O)[C@H](CCC(=O)O)NC(=O)[C@H](C)NC(=O)CCc1cnc[nH]1)[C@@H](C)O)[C@@H](C)O)C(C)C)C(=O)N[C@@H](C)C(=O)N[C@@H](Cc1c[nH]c2ccccc12)C(=O)N[C@@H](CC(C)C)C(=O)N[C@H](C(=O)N[C@@H](CCCCNc1c(NCCCCCN(O)C(=O)CCC(=O)NCCCCCN(O)C(=O)CCC(=O)NCCCCCN(O)C(C)=O)c(=O)c1=O)C(=O)NCC(=O)N[C@@H](CCCNC(=N)N)C(=O)N[C@@H](CCCCNc1c(NCCCCCN(O)C(=O)CCC(=O)NCCCCCN(O)C(=O)CCC(=O)NCCCCCN(O)C(C)=O)c(=O)c1=O)C(=O)NCC(=O)NCC(=O)N[C@@H](CO)C(=O)N[C@@H](CCCCNC(=O)COCCOCCNC(=O)COCCOCCNC(=O)CC[C@H](NC(=O)CCCCCCCCCCCCCCCCC(=O)O)C(=O)O)C(=O)O)C(C)C`, “fold potency loss” read 8.4 (GLP1R; agonist, CRE luciferase reporter; BHK cells; metal-free DFO conjugate, added: 0% HSA; reference: parent peptide).
Under “normalised MST signal”, `NCCCS(=O)(=O)O` is recorded as 0.111 (SLC6A6 (Homo sapiens, UniProt P31641, Y138A); binding, microscale thermophoresis; 488 nM, room temperature, added: 50 nM labelled protein; higher = more binding).
`O=C(COP(=O)(O)O)[C@@H](O)[C@H](O)[C@H](O)COP(=O)(O)O` — result for “thermal stability ratio”: 0.519 (Adenine phosphoribosyltransferase (Homo sapiens, UniProt P07741); thermal proteome profiling, item: APRT; HepG2 cell lysate; concentration not given, 57 over 37 °C, mean; reference: compound over control).
With `COc1cc(Nc2ncc3c(n2)-c2ccc(Cl)cc2C(c2c(F)cccc2OC)=NC3)ccc1C(=O)O` the remaining activity was 104% (MET M1250T; inhibitor, biochemical kinase; 1 µM).
With `CC(=O)N[C@H](C(=O)N1C[C@H](O)C[C@H]1C(=O)NCc1ccc(-c2scnc2C)cc1)C(C)(C)SCCCCCCNC(=O)C[C@@H]1N=C(c2ccc(Cl)cc2)c2c(sc(C)c2C)-n2c(C)nnc21` the cooperativity was 1 (BRD4/VHL, BD1; with elongins B/C (Homo sapiens, UniProt O60885+P40337); ITC; 25 °C, PROTAC:Brd4^BD1; reference: Kd binary over Kd ternary).
Under “sialic acid release”, `[N-]=[N+]=NCC(=O)N[C@H]1[C@H]([C@H](O)[C@H](O)CO)O[C@@](OC[C@H]2O[C@@H](Oc3ccc([N+](=O)[O-])cc3)[C@H](O)[C@@H](O)[C@H]2O)(C(=O)O)C[C@@H]1O` is recorded as 29% (Sialidase-2 (Homo sapiens, UniProt Q9Y3R4); substrate; 0.3 mM, 30 min, pH 5.0, 37 °C).

For quick reference, copied from above:
The Hill coefficient of `N#Cc1ccc2[nH]cc(CCCCN3CCN(c4ccc5oc(C(N)=O)cc5c4)CC3)c2c1` is reported as 0.98 ± 0.08 (SLC6A4 (Homo sapiens, UniProt P31645, N177V); [3H]5-HT uptake, inhibitor; COS-7).
For `CC[C@H](C)[C@@H]1NC(=O)[C@H](CCCNC(=N)N)NC(=O)[C@@H]2CCCN2C(=O)[C@H](Cc2ccccc2)NC(=O)[C@H]([C@@H](C)O)NC(=O)CNC(=O)[C@H](CC(C)C)NC(=O)[C@@H]2CCCN2C(=O)[C@H]([C@@H](C)O)NC(=O)[C@H](Cc2c[nH]c3ccccc23)NC(=O)[C@H](Cc2ccc(O)cc2)NC(=O)[C@H]([C@@H](C)CC)NC(=O)[C@H]([C@@H](C)O)NC(=O)[C@H]([C@@H](C)O)NC(=O)[C@@H](Cc2ccc(O)cc2)NC(=O)CSC[C@@H](C(N)=O)NC(=O)[C@H](CCCNC(=N)N)NC1=O`, the ΔH was -11.6 ± 0.1 kcal/mol (Vacuolar protein sorting-associated protein 29 (VPS29, Homo sapiens, UniProt Q9UBQ0); binding, ITC; 25 °C, protein alone).
`Oc1ccc(/C=C/c2cc(O)cc(O)c2)cc1` gave a binding stoichiometry of 0.57 ± 0.005 (O-methyltransferase (Sorghum bicolor, UniProt A0A1B6PFV1); ITC; concentration not given, added: MET+).
